Measured values from different studies.
Each line is one published result; not all experiments were run side by side. Numbers after ± are the reported error.

Compound = C[C@@H](O)[C@@H]1NC(=O)[C@@H]2CCCN2C(=O)[C@H](CC(N)=O)NC(=O)[C@@H](NC(=O)[C@H](Cc2ccc(O)cc2)NC(=O)CNC(=O)[C@@H](N)CC(N)=O)CCC(=O)NCCCC[C@@H](C(=O)N[C@@H](Cc2ccccc2)C(=O)N[C@@H](Cc2ccccc2)C(=O)N[C@@H](CCC(=O)O)C(=O)O)NC(=O)[C@H](Cc2ccc(O)cc2)NC1=O; system = human plasma; conditions = 37 °C; half-life = 1.75 h
Compound = Nc1nc2c(ncn2COCCOC(=O)[C@@H](N)CS)c(=O)[nH]1; system = DPBS; conditions = pH 5.0, 34 °C, chemical hydrolysis; half-life = 15.5 ± 1.7 h
Compound = COc1cc(C)c(Cc2ccc(O)cc2)cc1[C@@H]1S[C@H](CO)[C@@H](O)[C@H](O)[C@H]1O; system = Japanese T2DM patients, plasma; conditions = 2.5 mg luseogliflozin, day 1, once daily; half-life = 20.2 ± 4.39 h
Compound = COC(=O)c1ccc(/C=N/NS(=O)(=O)c2ccc(OC)c(OC)c2)cc1; system = liver microsomes, male Wistar rat; conditions = 10 µM, pH 7.4, 37 °C, without NADPH; half-life = 0.095 h
Compound = O=C(CCc1ccc(Br)cc1)N[C@H]1CCOC1=O; system = TRIS buffer with 0.5% DMSO; conditions = 50 µM, pH 7, 37 °C; half-life = 8.5 to 11 h
Compound = CCC(CC)O[C@@H]1C=C(C(=O)OC(OC(=O)[C@@H](N)C(C)C)C(C)C)C[C@H](NC(=N)N)[C@H]1NC(C)=O (single isomer, unassigned); system = acetate buffer; conditions = pH 5.5, 37 °C; half-life = stable
Compound = CCC(CC)[C@H](NC(C)=O)[C@@H]1[C@H](O)[C@@H](C(=O)N[C@H](C(=O)O)[C@@H](C)CC)C[C@H]1NC(=N)N; system = phosphate buffer; conditions = pH 7.4, 37 °C, chemical stability; half-life = 25.7 ± 0.8 h
Compound = CCC(=O)N[C@@H](C)C(=O)OCC(=O)N[C@@H](C)C(=O)O; system = water; conditions = pH 2, 25 °C; half-life = 1390 h
Compound = CC(=O)O[C@@H]1CC[C@@]2(C)C(CC[C@]3(C)C2C(=O)C=C2C4[C@@H](C)[C@H](C)CC[C@]4(C)CC[C@]23C)[C@@]1(C)C(=O)N/N=C1/C(=O)Nc2ccccc21 (stereo partly drawn); test = HPLC; system = 0.1 M HCl; conditions = 75 µM, pH 1.4, 37 °C, simulated gastric fluid; half-life = 5.74 h
Compound = CC(C)(C)c1nc(-c2ccc(NC(=O)c3cccs3)cc2Cl)no1; test = chemical stability; system = buffer; conditions = 5 µM, pH 10.0, 37 °C; half-life = 0.572 ± 0.122 h
Compound = O=C(CS(=O)(=O)Cc1ccco1)C12CC3CC(CC(C3)C1)C2; test = metabolic stability; system = human liver microsomes; conditions = 37 °C, together with: NADPH; half-life = 4.28 h
Compound = O=C(O)c1cccc(CN2CCOCCOCCN(Cc3cccc(C(=O)O)n3)CCOc3ccccc3OCC2)n1; test = isothiocyanate hydrolysis; system = NaHCO3 buffer; conditions = pH 9.1, room temperature; half-life = 56 h
Compound = Cc1cc(C)cc(OCC(N)c2ccccc2)c1 (stereo not drawn); test = chemical stability, HPLC; conditions = pH 3, 37 °C; half-life = > 360 h
Compound = CC(C)C[C@H](NC(=O)[C@H](CO)NC(=O)[C@H](CO)NC(=O)[C@H](CC(C)C)NC(=O)[C@@H](NC(=O)[C@@H]1CCCN1C(=O)[C@H](Cc1c[nH]c2ccccc12)NC(=O)[C@H](Cc1ccc(O)cc1)NC(=O)[C@@H]1CCCN1C(=O)[C@H](CC(C)C)NC(=O)[C@H](Cc1ccc(O)cc1)NC(=O)[C@@H](N)CCCCN)C(C)C)C(=O)O; system = mouse serum; conditions = 3000 µM, 37 °C, EphA4-ephrin-A5 ELISA activity; half-life = ~0.6 h
Compound = CC[C@H](C)[C@H](NC(=O)[C@H](CC(N)=O)NC(=O)[C@H](CC(N)=O)NC(=O)[C@H](CCCNC(=N)N)NC(=O)[C@H](CC(N)=O)NC(=O)[C@H](CCCNC(=N)N)NC(=O)[C@H](CCCCN)NC(=O)[C@@H](NC(=O)[C@H](CC(N)=O)NC(=O)[C@H](CCSC)NC(=O)[C@H](CC(C)C)NC(=O)[C@H](Cc1c[nH]c2ccccc12)NC(=O)[C@@H]1CSCc2ccc(cc2)-c2ccc(cc2)CSC[C@H](NC(=O)[C@H](CCC(=O)O)NC(=O)[C@H](CC(=O)O)NC(=O)[C@H](CC(C)C)NC(=O)[C@H](Cc2ccc(O)cc2)NC(=O)[C@H](CCCCN)NC(=O)[C@H](CO)NC(=O)[C@H](Cc2ccc(O)cc2)NC(=O)[C@H](CC(=O)O)NC(=O)[C@H](CO)NC(=O)[C@@H](NC(=O)[C@H](Cc2ccccc2)NC(=O)[C@@H](NC(=O)CNC(=O)[C@H](CCC(N)=O)NC(=O)[C@@H](CO)NC(=O)[C@@H](N)Cc2c[nH]cn2)[C@@H](C)O)[C@@H](C)O)C(=O)N[C@@H](C)C(=O)N[C@@H](C)C(=O)N[C@@H](CCCCN)C(=O)N[C@@H](CCC(=O)O)C(=O)N[C@@H](Cc2ccccc2)C(=O)N[C@@H]([C@@H](C)CC)C(=O)N1)[C@@H](C)O)C(=O)N[C@@H](C)C(N)=O; system = mouse serum; half-life = ~13 h

Excerpt of the above:
Compound = CCC(=O)N[C@@H](C)C(=O)OCC(=O)N[C@@H](C)C(=O)O; system = water; conditions = pH 2, 25 °C; half-life = 1390 h
Compound = CC(=O)O[C@@H]1CC[C@@]2(C)C(CC[C@]3(C)C2C(=O)C=C2C4[C@@H](C)[C@H](C)CC[C@]4(C)CC[C@]23C)[C@@]1(C)C(=O)N/N=C1/C(=O)Nc2ccccc21 (stereo partly drawn); test = HPLC; system = 0.1 M HCl; conditions = 75 µM, pH 1.4, 37 °C, simulated gastric fluid; half-life = 5.74 h
